Published values of several laboratories.
Parts stem from different laboratories: compare values within a part only. “And” joins repeats or separate records; there may be more than shown.
Sequence of UniProt O15146 (whole entry, looked up): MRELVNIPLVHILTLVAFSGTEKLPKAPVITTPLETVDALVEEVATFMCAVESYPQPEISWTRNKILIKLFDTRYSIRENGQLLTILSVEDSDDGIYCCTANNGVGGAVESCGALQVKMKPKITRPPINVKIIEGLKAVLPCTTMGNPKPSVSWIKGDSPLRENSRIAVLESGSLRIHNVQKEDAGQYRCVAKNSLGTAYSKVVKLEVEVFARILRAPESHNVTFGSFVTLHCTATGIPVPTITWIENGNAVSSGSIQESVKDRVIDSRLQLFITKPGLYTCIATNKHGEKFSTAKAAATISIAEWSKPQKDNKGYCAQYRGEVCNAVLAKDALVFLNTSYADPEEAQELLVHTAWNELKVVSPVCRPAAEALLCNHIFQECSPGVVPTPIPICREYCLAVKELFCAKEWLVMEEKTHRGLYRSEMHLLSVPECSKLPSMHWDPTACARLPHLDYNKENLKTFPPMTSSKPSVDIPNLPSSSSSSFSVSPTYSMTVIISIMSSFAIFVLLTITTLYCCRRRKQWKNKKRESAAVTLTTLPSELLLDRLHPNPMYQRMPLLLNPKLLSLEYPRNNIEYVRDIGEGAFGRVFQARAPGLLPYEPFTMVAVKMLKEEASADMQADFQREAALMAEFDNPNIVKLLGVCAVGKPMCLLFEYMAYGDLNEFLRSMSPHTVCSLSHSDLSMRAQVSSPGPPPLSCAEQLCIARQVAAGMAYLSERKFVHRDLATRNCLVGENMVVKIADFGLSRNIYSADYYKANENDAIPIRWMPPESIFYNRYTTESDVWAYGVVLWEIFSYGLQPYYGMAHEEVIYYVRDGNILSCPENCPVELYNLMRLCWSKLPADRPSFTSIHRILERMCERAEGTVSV
Sequence of UniProt P42680 (whole entry, looked up): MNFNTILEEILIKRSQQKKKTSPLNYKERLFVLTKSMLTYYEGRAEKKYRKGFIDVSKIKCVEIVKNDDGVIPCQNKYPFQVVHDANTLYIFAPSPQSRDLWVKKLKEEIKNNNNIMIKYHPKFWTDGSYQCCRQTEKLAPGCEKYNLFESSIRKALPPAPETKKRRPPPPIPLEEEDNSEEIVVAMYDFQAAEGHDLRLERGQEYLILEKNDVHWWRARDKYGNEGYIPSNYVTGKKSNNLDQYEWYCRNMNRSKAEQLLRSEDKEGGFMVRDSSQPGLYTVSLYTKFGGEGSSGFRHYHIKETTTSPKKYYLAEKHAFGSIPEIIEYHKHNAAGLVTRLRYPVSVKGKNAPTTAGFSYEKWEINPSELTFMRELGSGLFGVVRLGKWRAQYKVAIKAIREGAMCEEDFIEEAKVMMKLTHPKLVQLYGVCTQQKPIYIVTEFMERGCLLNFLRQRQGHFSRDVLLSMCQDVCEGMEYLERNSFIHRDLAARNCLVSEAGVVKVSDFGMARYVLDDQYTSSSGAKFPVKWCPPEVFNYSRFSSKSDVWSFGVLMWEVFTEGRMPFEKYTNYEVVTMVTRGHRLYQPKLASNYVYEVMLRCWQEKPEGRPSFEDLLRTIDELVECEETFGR
Sequence of UniProt Q96SB4 (whole entry, looked up): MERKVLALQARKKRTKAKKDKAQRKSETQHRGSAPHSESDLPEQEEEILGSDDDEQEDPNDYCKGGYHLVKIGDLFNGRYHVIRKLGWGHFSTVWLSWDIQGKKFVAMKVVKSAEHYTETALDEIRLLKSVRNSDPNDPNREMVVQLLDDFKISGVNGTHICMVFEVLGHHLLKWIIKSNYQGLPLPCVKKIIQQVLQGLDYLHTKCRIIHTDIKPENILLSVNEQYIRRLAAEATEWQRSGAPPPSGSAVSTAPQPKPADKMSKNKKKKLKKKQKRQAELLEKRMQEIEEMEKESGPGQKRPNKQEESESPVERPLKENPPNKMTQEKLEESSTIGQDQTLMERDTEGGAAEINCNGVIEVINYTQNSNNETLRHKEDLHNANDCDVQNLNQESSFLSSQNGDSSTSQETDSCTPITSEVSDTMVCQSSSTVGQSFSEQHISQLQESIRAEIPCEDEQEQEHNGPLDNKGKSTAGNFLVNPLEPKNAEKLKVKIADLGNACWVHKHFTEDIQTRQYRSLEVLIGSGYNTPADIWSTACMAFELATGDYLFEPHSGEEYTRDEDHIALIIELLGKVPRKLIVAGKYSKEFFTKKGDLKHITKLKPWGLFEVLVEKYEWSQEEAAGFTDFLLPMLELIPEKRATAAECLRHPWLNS
Sequence of UniProt P21730 (whole entry, looked up): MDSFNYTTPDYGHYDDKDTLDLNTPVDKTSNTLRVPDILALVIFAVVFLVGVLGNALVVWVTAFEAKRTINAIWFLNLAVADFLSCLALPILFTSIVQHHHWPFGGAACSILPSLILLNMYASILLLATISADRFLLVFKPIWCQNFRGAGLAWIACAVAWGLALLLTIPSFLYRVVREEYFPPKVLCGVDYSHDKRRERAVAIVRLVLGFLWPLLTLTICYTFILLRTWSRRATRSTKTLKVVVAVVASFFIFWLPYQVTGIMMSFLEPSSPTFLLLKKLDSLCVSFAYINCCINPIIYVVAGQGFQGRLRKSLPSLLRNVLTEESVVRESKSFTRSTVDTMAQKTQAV
Sequence of UniProt Q8IWQ3 (whole entry, looked up): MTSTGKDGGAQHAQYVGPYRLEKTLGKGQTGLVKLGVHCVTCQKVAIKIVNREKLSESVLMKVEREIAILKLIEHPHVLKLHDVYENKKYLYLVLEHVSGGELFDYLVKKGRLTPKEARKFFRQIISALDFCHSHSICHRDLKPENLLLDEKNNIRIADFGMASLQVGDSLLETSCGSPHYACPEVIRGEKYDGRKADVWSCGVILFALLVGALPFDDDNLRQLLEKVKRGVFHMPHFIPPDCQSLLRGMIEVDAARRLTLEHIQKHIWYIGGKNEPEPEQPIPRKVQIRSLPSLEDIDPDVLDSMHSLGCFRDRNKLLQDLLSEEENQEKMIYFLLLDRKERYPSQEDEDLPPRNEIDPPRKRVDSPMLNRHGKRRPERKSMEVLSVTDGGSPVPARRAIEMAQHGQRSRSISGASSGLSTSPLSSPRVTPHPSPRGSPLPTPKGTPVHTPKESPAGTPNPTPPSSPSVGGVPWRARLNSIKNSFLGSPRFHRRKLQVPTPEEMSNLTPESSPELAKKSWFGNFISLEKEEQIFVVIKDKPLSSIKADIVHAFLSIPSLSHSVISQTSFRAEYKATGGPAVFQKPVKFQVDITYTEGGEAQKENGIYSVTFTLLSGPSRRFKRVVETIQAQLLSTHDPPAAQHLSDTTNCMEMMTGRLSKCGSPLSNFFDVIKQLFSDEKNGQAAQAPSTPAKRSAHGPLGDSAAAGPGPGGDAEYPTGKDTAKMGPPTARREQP
Sequence of UniProt P37023 (whole entry, looked up): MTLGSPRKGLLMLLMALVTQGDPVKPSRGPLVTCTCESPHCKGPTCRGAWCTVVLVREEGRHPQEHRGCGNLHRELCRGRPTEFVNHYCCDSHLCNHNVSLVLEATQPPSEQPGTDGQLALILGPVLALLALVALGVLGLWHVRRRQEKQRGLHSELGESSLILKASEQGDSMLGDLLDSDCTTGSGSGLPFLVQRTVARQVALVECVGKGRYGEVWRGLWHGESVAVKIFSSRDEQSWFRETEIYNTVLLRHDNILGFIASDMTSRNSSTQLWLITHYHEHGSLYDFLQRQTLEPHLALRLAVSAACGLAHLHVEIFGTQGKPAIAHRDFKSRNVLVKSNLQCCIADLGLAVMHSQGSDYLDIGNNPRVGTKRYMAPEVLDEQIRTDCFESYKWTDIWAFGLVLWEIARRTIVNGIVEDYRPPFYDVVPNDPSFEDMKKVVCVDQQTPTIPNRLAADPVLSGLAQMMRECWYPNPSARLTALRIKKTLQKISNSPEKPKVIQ
Sequence of UniProt P51812 (whole entry, looked up): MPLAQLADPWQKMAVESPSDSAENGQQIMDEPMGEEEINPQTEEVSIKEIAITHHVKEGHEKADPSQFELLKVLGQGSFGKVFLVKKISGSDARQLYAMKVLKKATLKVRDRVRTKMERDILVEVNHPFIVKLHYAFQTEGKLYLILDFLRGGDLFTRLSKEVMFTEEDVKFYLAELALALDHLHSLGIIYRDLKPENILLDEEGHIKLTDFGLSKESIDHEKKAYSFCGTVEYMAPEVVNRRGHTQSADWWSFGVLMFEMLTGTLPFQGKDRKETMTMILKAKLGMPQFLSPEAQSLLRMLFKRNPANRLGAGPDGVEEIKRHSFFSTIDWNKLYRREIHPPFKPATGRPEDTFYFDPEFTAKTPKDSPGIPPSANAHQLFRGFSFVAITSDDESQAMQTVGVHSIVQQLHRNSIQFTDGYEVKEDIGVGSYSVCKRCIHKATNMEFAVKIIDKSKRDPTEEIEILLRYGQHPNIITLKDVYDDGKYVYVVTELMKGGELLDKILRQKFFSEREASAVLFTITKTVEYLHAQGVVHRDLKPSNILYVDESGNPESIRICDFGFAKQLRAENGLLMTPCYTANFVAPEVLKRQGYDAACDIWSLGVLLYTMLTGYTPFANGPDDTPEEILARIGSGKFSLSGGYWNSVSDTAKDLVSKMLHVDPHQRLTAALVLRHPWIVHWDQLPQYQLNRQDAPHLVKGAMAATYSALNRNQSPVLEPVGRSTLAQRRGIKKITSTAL
Sequence of UniProt P13945 (whole entry, looked up): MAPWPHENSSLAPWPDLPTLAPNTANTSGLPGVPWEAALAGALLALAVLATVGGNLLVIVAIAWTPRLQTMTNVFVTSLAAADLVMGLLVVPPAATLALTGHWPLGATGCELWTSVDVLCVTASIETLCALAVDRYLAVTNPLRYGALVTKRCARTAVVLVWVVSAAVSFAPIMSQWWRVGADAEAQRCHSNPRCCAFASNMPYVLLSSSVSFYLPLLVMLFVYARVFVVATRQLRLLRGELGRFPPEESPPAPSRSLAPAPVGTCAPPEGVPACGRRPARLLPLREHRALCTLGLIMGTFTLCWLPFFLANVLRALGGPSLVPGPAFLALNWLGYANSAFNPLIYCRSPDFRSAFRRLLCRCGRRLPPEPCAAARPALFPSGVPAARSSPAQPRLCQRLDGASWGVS

Block 1
Structure (SMILES): COc1cc2ncnc(Nc3ccc(OCc4ccccc4)cc3)c2cc1OC
Read-out: enzyme activity
Action: inhibitor
Concentration: 0.5 µM
Baseline: control
target | remaining activity [%]
Serine/threonine-protein kinase BRSK2 (BRSK2, Homo sapiens, UniProt Q8IWQ3) | 98.7
Ribosomal protein S6 kinase beta-2 (RPS6KB2, Homo sapiens, UniProt Q9UBS0) | 108
Vascular endothelial growth factor receptor 1 (FLT1, Homo sapiens, UniProt P17948) | 96
Ribosomal protein S6 kinase alpha-3 (RPS6KA3, Homo sapiens, UniProt P51812) | 103
Protein kinase C zeta type (PRKCZ, Homo sapiens, UniProt Q05513) | 113
Calcium/calmodulin-dependent protein kinase kinase 1 (CAMKK1, Homo sapiens, UniProt Q8N5S9) | 126
Dual specificity tyrosine-phosphorylation-regulated kinase 1A (DYRK1A, Homo sapiens, UniProt Q13627) | 105
Serine/threonine-protein kinase PAK 1 (PAK1, Homo sapiens, UniProt Q13153) | 93.2
Serine/threonine-protein kinase PAK 5 (PAK5, Homo sapiens, UniProt Q9P286) | 99.6
Dual specificity protein kinase CLK2 (CLK2, Homo sapiens, UniProt P49760) | 102
Tyrosine-protein kinase Fes/Fps (FES, Homo sapiens, UniProt P07332) | 97
Tyrosine-protein kinase JAK2 (JAK2, Homo sapiens, UniProt O60674) | 94.3
SRSF protein kinase 1 (SRPK1, Homo sapiens, UniProt Q96SB4) | 105
Ephrin type-B receptor 3 (EPHB3, Homo sapiens, UniProt P54753) | 90
Tyrosine-protein kinase Tec (TEC, Homo sapiens, UniProt P42680) | 106
Serine/threonine-protein kinase PAK 6 (PAK6, Homo sapiens, UniProt Q9NQU5) | 95.4
Serine/threonine-protein kinase MARK1 (MARK1, Homo sapiens, UniProt Q9P0L2) | 103
Dual specificity protein kinase CLK1 (CLK1, Homo sapiens, UniProt P49759) | 111
Cyclin-dependent kinase 5, with p35 (CDK5, Homo sapiens, UniProt Q00535) | 103
Casein kinase I isoform delta (CSNK1D, Homo sapiens, UniProt P48730) | 96.6
Tyrosine-protein kinase receptor TYRO3 (TYRO3, Homo sapiens, UniProt Q06418) | 86.9
Activin receptor type-1-like (ACVRL1, Homo sapiens, UniProt P37023) | 102
Tyrosine-protein kinase Yes (YES1, Homo sapiens, UniProt P07947) | 36
Receptor tyrosine-protein kinase erbB-2 (ERBB2, Homo sapiens, UniProt P04626) | 42.6
Muscle, skeletal receptor tyrosine-protein kinase (MUSK, Homo sapiens, UniProt O15146) | 99.3

Block 2
Target: Diamine acetyltransferase 1 (Homo sapiens, UniProt P21673)
Action: inhibitor
Concentration: 10 µM
Baseline: control
Construct (P21673 1-171): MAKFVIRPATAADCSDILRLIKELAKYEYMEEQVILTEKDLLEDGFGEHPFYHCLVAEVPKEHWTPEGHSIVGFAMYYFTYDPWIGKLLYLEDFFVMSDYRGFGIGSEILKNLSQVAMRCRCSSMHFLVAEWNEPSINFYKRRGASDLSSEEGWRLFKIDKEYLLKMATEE
SMILES | remaining activity [%]
CC1=CC(=O)CC(C)(C)C1=O | 96.1
C[C@@H]1CCCC2=CC(=O)[C@@H]3[C@@H](C3(C)C)[C@]21C | 95.8
CC(=O)c1cc(O)ccc1O | 94.9
CC(C)=CCc1c2ccoc2c(O)c2oc(=O)ccc12 | 83.1
Cc1cc(O)c(C(=O)CCC(C)C)c(=O)o1 | 107

Block 3
Host: human
Sample: microsomes or S9
Concentration: 2 µM
Time: 0.5 h
Compound | remaining compound [%]
c1ccc2c(c1)ccc1nnc(-c3c[nH]c4ccccc34)n12 | 67.7
O=C(N1CCCO1)N(c1ccccc1)c1ccccc1 | 64.2
O=C(Cn1nc2c(cc1=O)CCCCC2)Nc1n[nH]c(C2CCCO2)n1 (centres unmarked) | 68.7
CC(C)CS(=O)(=O)CC(=O)n1cccc/c1=N\C(C)C | 77.2
CCc1ccc(C2=NN(c3ccc(S(N)(=O)=O)cc3)C(c3ccc(O)cc3)C2)cc1 (centres unmarked) | > 99
COc1ccc(N(C)S(=O)(=O)c2cc3c(cc2Cl)Oc2ccccc2NC3=O)cc1 | 54.5

Block 4
Cell line: normal-adjacent organoid sample D
Technique: CellTiter-Glo
Concentration: 0.1 µM
Setting: replicate mean
Baseline: DMSO
Structure (SMILES) | viability [%]
O=C(NCCCC1CCCCC1)c1ccc(CNC(=O)c2cnn(-c3ccccc3)c2C(F)(F)F)cc1 | 126
CS(=O)(=O)N1CCCC(NC(=O)[C@H](CCC2CCCCC2)NC(=O)c2ccc(CNC(=O)c3cnc4ccccn34)cc2)C1 (some centres unmarked) | 132
O[C@]1(C(F)(F)F)CCCC[C@H]1Nc1ccc(F)cc1 | 105
CN1C(=O)[C@@H](N2CCc3c(nn(Cc4ccccc4)c3Br)C2=O)COc2ccccc21 | 110
Nc1c(C(=O)NCc2ccc(C(=O)NCCCC3CCCCC3)cc2)cnn1-c1ccccc1 | 153
COc1cc(N[C@@H]2CCCC[C@]2(O)C(F)(F)F)ccc1F | 114
CN1C(=O)[C@@H](N2CCc3cn(Cc4ccccc4)nc3C2=O)COc2ccccc21 | 124

Block 5
SMILES: c1ccc2c(-c3nn4c(-c5ccncc5)nnc4s3)c[nH]c2c1
Cell line: HEK293T ATF4-firefly luciferase reporter
Read-out: integrated stress response
Item: ATF4
Baseline: DMSO
conditions | reporter signal
1 µM, together with: ISRIB | 95.9% and 95.3% and 77.7% and 90.2% and 71.6% and 77.9% and 80.4% and 78%
10 µM, together with: ISRIB | 98.6% and 106% and 90.6% and 120% and 109% and 116%
1 µM, without ISRIB | 112% and 157% and 133% and 131% and 122%

Block 6
Structure (SMILES): CCN(c1nc(N)c(C(=O)N=C(N)N)nc1Cl)C(C)C
Read-out: β-arrestin recruitment
Action: agonist
Technique: PRESTO-Tango
Concentration: 10 µM
Baseline: untreated
target | fold over basal
C5a anaphylatoxin chemotactic receptor 1 (C5AR1, Homo sapiens, UniProt P21730) | 0.95
Adhesion G protein-coupled receptor E5 (Homo sapiens, UniProt P48960) | 0.49
Proteinase-activated receptor 1 (F2R, Homo sapiens, UniProt P25116) | 1.16
Beta-3 adrenergic receptor (ADRB3, Homo sapiens, UniProt P13945) | 1.1
